Measurements from different studies.
Protocols differ between the studies behind these lines.
Organism: Candida albicans

| SMILES | test | system | setting | how to read | MIC |
| --- | --- | --- | --- | --- | --- |
| CC(C)C[C@H](NC(=O)[C@H](CCCNC(=N)N)NC(=O)[C@H](CCC(N)=O)NC(=O)[C@H](Cc1c[nH]cn1)NC(=O)[C@@H](NC(=O)[C@H](CCCCN)NC(=O)[C@H](CC(C)C)NC(=O)[C@H](CCC(=O)O)NC(=O)[C@H](CO)NC(=O)[C@H](CCCNC(=N)N)NC(=O)[C@@H](N)CO)C(C)C)C(=O)N[C@@H](Cc1ccccc1)C(N)=O | broth microdilution | RPMI MOPS-buffered | – | – | > 400 µg/mL |
| O.O=[N+]([O-])[O-].O=c1cc[nH]c(=S)[nH]1.[Ag+].c1ccc(P(c2ccccc2)c2ccccc2)cc1.c1ccc(P(c2ccccc2)c2ccccc2)cc1 | agar dilution | MTCC 227, Mueller Hinton agar | 24 h, 25 °C | – | 10 µg/mL |
| COc1cc2c(=O)c(C(=O)NCCNCCO)cn(Cc3ccccc3)c2cc1OCc1cccc(Br)c1 | – | ATCC 90028 | – | ≥80% growth inhibition | < 0.25 µg/mL |
| CC[C@H](C)[C@H](NC(=O)[C@H](CC(C)C)NC(=O)CCNC(=O)[C@H](CO)NC(=O)[C@H](CCCNC(=N)N)NC(=O)[C@@H](N)CO)C(=O)N[C@H](C(=O)N[C@@H](Cc1c[nH]cn1)C(=O)N[C@@H](CCC(N)=O)C(=O)N[C@@H](CCCNC(=N)N)C(=O)N[C@@H](CC(C)C)C(=O)N[C@@H](Cc1ccccc1)C(N)=O)C(C)C | broth microdilution | RPMI MOPS-buffered | – | – | > 400 µg/mL |
| CC(C)(C)c1ccc(COc2cc3c(=O)c(C(=O)NCCNCCO)cn(Cc4ccccc4)c3cc2Cl)cc1 | – | ATCC 90028 | – | ≥80% growth inhibition | > 32 µg/mL |
| CC[C@H](C)[C@H](NC(=O)[C@H](CCC(N)=O)NC(=O)[C@@H]1CCCN1C(=O)[C@@H](NC(=O)[C@@H](NC(=O)[C@H](Cc1ccc(O)cc1)NC(=O)[C@H](C)NC(=O)[C@H](C)NC(=O)[C@H](CC(C)C)NC(=O)[C@H](CCCCN)NC(=O)[C@H](C)NC(=O)[C@H](CC(C)C)NC(=O)[C@H](CC(C)C)NC(=O)CNC(=O)[C@@H](NC(=O)[C@@H](N)Cc1ccccc1)C(C)C)C(C)C)[C@@H](C)CC)C(=O)N[C@H](C(=O)N[C@@H](CCCCN)C(=O)N[C@@H](CCCNC(=N)N)C(=O)N[C@@H](Cc1ccccc1)C(=O)N[C@@H](CCC(N)=O)C(=O)N[C@@H](CCCCN)C(=O)N[C@@H](CCCCN)C(=O)N[C@@H](CCCCN)C(N)=O)C(C)C | ATP luminescence | FH2173 | 48 h | – | 12.5 to 25 µM |
| CC(C)C[C@H](NC(=O)CN)C(=O)N[C@@H](CC(C)C)C(=O)N[C@@H](CCCCN)C(=O)N[C@@H](CC(C)C)C(=O)N[C@@H](CC(C)C)C(=O)N[C@@H](CCCCN)C(=O)N[C@@H](CCCCN)C(=O)N[C@@H](CC(C)C)C(=O)N[C@@H](CC(C)C)C(=O)N[C@@H](CCCCN)C(=O)N[C@@H](CC(C)C)C(=O)N[C@@H](CC(C)C)C(=O)N[C@@H](CCCCN)C(N)=O | broth microdilution OD530 | ATCC 90028, yeast nitrogen base | 24 h, 35 °C | – | 12 µM |
| CC[C@H](C)[C@H](NC(=O)[C@@H](NC(=O)[C@H](CCCCN)NC(=O)[C@H](CC(=O)O)NC(=O)[C@H](CCCCN)NC(=O)[C@H](Cc1ccccc1)NC(=O)[C@H](Cc1ccccc1)NC(=O)[C@H](CO)NC(=O)[C@H](CCCCN)NC(=O)[C@H](CCSC)NC(=O)[C@H](CCCCN)NC(=O)[C@H](CCCCN)NC(=O)[C@H](Cc1c[nH]c2ccccc12)NC(=O)[C@@H](N)Cc1ccccc1)C(C)C)C(=O)N1CCC[C@H]1C(=O)N[C@@H](CCCCN)C(=O)N[C@H](C(=O)N[C@@H](CCC(N)=O)C(=O)N[C@@H](CCC(N)=O)C(=O)N[C@@H](C)C(=O)N[C@@H](Cc1ccc(O)cc1)C(=O)N[C@@H](CO)C(=O)N[C@@H](CC(C)C)C(=O)N[C@@H](Cc1ccc(O)cc1)C(=O)N[C@@H](CC(N)=O)C(=O)N[C@@H](CCCCN)C(=O)N[C@@H](CC(C)C)C(=O)N[C@@H](CCC(N)=O)C(=O)N[C@@H](Cc1c[nH]cn1)C(=O)N[C@@H](CCCCN)C(=O)N[C@@H](CC(C)C)C(N)=O)C(C)C | ATP luminescence | FH2173 | 48 h | – | > 50 µM |
| CC[C@@H](CC(=O)N[C@@H](CCCNC(=N)N)CC(=O)N[C@H](CC(=O)N[C@@H](CC)CC(=O)N[C@@H](CCCNC(=N)N)CC(=O)N[C@H](CC(=O)N[C@@H](CC)CC(=O)N[C@@H](CCCNC(=N)N)CC(N)=O)[C@@H](C)CC)[C@@H](C)CC)NC(=O)C[C@@H](NC(=O)C[C@@H](N)Cc1ccc(O)cc1)[C@@H](C)CC | broth microdilution | SC5314 | 48 h, pH 7.2, 35 °C | – | 16 µg/mL |
| CC1C(=NNC(=O)c2ccncc2)C(C)C(c2ccc(Br)cc2)OC1c1ccc(Br)cc1 (stereo not drawn) | microbial growth | – | – | – | 100 µg/mL |
| CCCCCCCCCCCCC(=O)O.O=C1CCCC2C3CCCN4CCCC(CN12)C34 (stereo not drawn) | broth dilution | ATCC 10231 | – | – | inactive |
| CC[C@H](C)[C@@H]1NC(=O)[C@H](CC(C)C)NC(=O)[C@@H](NC(=O)[C@H](CO)NC(=O)[C@H](CCCNC(=N)N)NC(=O)[C@@H](N)CO)CSSC[C@H](NC(=O)[C@H](CO)NC(=O)[C@H](CCCNC(=N)N)NC(=O)[C@@H](N)CO)C(=O)N[C@@H](CC(C)C)C(=O)N[C@@H]([C@@H](C)CC)C(=O)N[C@@H](C(C)C)C(=O)N[C@H](C(=O)N[C@@H](CCC(N)=O)C(=O)N[C@@H](CCCNC(=N)N)C(=O)N[C@@H](CC(C)C)C(=O)N[C@@H](Cc2ccccc2)C(N)=O)CSSC[C@@H](C(=O)N[C@@H](CCC(N)=O)C(=O)N[C@@H](CCCNC(=N)N)C(=O)N[C@@H](CC(C)C)C(=O)N[C@@H](Cc2ccccc2)C(N)=O)NC(=O)[C@H](C(C)C)NC1=O | broth microdilution | ATCC 24433 | – | – | 48 µg/mL |
| CC[C@H](C)[C@@H]1NC(=O)CNC(=O)[C@H](CCCCN)NC(=O)[C@H](C)NC(=O)[C@H](CCC(=O)O)NC(=O)[C@H](Cc2ccccc2)NC(=O)[C@H](CO)NC(=O)[C@H](CC(C)C)NC(=O)[C@H](C(C)C)NC(=O)[C@H](CC(=O)O)NC(=O)[C@@H](NC(=O)[C@@H](NC(=O)[C@@H](N)C(C)C)[C@@H](C)O)CSSC[C@@H]2NC(=O)[C@H](CO)NC(=O)CNC(=O)CNC(=O)[C@H](CCCCN)NC(=O)[C@H](CCCCN)NC(=O)[C@H](CCCNC(=N)N)NC(=O)[C@H](CC(C)C)NC(=O)[C@H](C)NC(=O)[C@H]([C@@H](C)CC)NC(=O)[C@H](CSSC[C@@H](C(=O)N[C@@H](CCCNC(=N)N)C(=O)N[C@@H](CC(N)=O)C(=O)O)NC(=O)[C@H](C(C)C)NC(=O)[C@H](C)NC(=O)[C@H](C(C)C)NC(=O)CNC(=O)[C@H](CC(N)=O)NC(=O)[C@H](CCC(N)=O)NC2=O)NC(=O)[C@H](Cc2c[nH]cn2)NC(=O)[C@H](CC(C)C)NC(=O)[C@H](C)NC(=O)[C@H](C)NC(=O)[C@H](C)NC(=O)[C@H](CO)NC(=O)[C@H](Cc2c[nH]cn2)NC(=O)[C@H](CC(N)=O)NC(=O)[C@H](C(C)C)NC(=O)[C@H](C)NC1=O | broth microdilution | ATCC 90028 | 28 °C | – | 12.5 µM |
| CC[C@H](C)[C@H](NC(=O)[C@H](CC(C)C)NC(=O)[C@H](C)NC(=O)[C@H](CO)NC(=O)[C@H](CCCNC(=N)N)NC(=O)[C@@H](N)CO)C(=O)N[C@H](C(=O)N[C@@H](Cc1c[nH]cn1)C(=O)N[C@@H](CCC(N)=O)C(=O)N[C@@H](CCCNC(=N)N)C(=O)N[C@@H](CC(C)C)C(=O)N[C@@H](Cc1ccccc1)C(N)=O)C(C)C | broth microdilution | RPMI MOPS-buffered | – | – | > 400 µg/mL |
| CC(C)[C@@H](CC(=O)N[C@@H](CCCNC(=N)N)CC(N)=O)NC(=O)[C@H]1CCCC[C@@H]1NC(=O)C[C@H](CCCNC(=N)N)NC(=O)C[C@@H](NC(=O)[C@H]1CCCC[C@@H]1NC(=O)C[C@H](CCCNC(=N)N)NC(=O)C[C@@H](NC(=O)[C@H]1CCCC[C@@H]1N)C(C)C)C(C)C | broth microdilution | SC5314 | 48 h, pH 7.2, 35 °C | – | 8 µg/mL |

Repeated from above:
| SMILES | test | system | setting | how to read | MIC |
| --- | --- | --- | --- | --- | --- |
| CC(C)[C@@H](CC(=O)N[C@@H](CCCNC(=N)N)CC(N)=O)NC(=O)[C@H]1CCCC[C@@H]1NC(=O)C[C@H](CCCNC(=N)N)NC(=O)C[C@@H](NC(=O)[C@H]1CCCC[C@@H]1NC(=O)C[C@H](CCCNC(=N)N)NC(=O)C[C@@H](NC(=O)[C@H]1CCCC[C@@H]1N)C(C)C)C(C)C | broth microdilution | SC5314 | 48 h, pH 7.2, 35 °C | – | 8 µg/mL |
| CC[C@@H](CC(=O)N[C@@H](CCCNC(=N)N)CC(=O)N[C@H](CC(=O)N[C@@H](CC)CC(=O)N[C@@H](CCCNC(=N)N)CC(=O)N[C@H](CC(=O)N[C@@H](CC)CC(=O)N[C@@H](CCCNC(=N)N)CC(N)=O)[C@@H](C)CC)[C@@H](C)CC)NC(=O)C[C@@H](NC(=O)C[C@@H](N)Cc1ccc(O)cc1)[C@@H](C)CC | broth microdilution | SC5314 | 48 h, pH 7.2, 35 °C | – | 16 µg/mL |
